Measured values pooled from the literature.
± gives the spread as reported.
Nuclear receptor subfamily 1 group I member 3: Nuclear receptor subfamily 1 group I member 3 (Homo sapiens, UniProt Q14994)
UniProt Q14994, sequence (whole entry, looked up): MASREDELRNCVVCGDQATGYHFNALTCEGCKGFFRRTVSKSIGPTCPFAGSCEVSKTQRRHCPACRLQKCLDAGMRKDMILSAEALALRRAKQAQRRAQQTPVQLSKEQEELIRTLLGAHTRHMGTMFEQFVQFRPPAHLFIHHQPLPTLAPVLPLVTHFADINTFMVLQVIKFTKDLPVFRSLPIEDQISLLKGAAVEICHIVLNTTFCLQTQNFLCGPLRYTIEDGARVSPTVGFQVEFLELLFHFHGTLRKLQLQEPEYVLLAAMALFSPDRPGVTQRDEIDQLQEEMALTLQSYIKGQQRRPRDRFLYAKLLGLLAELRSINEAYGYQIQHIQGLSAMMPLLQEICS
uncharacterized protein: uncharacterized protein (Anopheles coluzzii, UniProt A0A6E8VQK1)
AURKB: Aurora kinase B (AURKB, Homo sapiens, UniProt Q96GD4)
UniProt Q96GD4, sequence (whole entry, looked up): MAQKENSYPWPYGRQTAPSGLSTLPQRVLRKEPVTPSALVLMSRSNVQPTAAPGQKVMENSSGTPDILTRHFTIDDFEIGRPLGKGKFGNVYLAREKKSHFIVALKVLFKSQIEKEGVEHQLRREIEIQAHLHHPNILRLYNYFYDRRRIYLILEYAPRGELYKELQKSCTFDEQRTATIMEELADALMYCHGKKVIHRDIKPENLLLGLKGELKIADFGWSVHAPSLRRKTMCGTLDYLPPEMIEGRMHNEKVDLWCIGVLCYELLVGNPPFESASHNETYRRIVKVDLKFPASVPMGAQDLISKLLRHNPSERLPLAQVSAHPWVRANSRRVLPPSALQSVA
UniProt P20782, sequence (whole entry, unmodified, looked up): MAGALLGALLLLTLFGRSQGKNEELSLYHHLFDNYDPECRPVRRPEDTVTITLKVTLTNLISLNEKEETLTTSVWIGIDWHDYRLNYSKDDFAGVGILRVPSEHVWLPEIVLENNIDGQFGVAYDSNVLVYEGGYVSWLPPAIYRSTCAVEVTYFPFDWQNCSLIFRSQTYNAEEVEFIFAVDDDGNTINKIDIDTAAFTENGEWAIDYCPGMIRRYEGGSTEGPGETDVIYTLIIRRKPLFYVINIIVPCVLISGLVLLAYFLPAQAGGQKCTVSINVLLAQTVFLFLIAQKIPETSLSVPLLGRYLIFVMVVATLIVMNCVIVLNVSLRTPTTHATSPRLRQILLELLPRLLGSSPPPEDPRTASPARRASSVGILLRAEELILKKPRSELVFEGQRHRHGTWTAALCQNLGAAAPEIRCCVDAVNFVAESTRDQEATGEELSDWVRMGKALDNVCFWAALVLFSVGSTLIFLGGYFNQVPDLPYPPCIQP
UniProt P30994, sequence (whole entry, looked up): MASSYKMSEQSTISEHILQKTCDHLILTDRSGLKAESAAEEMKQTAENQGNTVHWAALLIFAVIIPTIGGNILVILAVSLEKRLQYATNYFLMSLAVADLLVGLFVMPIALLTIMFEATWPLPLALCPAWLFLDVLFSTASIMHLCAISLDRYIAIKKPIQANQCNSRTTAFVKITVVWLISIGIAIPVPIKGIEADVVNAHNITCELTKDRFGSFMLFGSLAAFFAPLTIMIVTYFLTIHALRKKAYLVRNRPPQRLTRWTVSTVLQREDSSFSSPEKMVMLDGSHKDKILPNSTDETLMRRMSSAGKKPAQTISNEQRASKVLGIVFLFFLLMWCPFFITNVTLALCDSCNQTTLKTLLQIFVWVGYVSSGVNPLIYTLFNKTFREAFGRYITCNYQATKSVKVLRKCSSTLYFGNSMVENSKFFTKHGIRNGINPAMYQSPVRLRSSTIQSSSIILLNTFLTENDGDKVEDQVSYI
UniProt H2K887, sequence (whole entry, looked up): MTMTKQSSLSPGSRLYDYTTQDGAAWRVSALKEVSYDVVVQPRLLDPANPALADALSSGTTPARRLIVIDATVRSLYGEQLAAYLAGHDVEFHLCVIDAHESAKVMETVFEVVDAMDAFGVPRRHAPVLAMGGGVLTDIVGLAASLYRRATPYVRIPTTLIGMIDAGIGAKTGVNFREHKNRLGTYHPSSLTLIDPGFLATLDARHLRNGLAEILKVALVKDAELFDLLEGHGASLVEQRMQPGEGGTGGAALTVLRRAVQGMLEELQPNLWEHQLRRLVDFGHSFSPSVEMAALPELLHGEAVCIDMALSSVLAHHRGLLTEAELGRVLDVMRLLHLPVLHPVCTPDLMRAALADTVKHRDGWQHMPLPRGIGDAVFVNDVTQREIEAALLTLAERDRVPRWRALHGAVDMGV
UniProt Q6PJP8, sequence (whole entry, looked up): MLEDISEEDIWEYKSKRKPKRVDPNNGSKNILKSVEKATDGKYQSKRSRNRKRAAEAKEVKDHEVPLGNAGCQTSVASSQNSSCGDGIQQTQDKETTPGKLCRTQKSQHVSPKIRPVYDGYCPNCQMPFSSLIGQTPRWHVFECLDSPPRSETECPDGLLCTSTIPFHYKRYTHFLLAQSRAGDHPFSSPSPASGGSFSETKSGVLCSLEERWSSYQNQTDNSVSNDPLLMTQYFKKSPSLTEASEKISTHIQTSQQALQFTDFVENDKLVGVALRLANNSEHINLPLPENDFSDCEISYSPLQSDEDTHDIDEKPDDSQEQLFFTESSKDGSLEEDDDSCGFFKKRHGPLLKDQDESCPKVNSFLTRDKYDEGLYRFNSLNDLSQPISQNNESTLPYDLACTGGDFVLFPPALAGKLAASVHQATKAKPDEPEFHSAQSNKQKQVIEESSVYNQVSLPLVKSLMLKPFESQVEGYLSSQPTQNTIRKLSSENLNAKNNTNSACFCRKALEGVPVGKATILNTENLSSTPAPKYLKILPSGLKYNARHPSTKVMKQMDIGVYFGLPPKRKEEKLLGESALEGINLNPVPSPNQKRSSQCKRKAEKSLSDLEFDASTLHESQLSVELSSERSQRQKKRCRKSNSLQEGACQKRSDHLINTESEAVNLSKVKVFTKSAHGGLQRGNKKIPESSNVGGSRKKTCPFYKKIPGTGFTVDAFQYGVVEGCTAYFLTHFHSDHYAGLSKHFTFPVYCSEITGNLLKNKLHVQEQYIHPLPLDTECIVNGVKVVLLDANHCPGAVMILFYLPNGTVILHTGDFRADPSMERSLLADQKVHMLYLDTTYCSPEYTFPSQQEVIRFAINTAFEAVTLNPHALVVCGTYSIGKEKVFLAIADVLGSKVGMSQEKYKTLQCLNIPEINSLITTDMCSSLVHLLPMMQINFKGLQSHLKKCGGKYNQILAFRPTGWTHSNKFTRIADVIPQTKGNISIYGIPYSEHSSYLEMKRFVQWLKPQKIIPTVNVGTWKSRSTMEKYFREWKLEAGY
UniProt P14480, sequence (whole entry, looked up): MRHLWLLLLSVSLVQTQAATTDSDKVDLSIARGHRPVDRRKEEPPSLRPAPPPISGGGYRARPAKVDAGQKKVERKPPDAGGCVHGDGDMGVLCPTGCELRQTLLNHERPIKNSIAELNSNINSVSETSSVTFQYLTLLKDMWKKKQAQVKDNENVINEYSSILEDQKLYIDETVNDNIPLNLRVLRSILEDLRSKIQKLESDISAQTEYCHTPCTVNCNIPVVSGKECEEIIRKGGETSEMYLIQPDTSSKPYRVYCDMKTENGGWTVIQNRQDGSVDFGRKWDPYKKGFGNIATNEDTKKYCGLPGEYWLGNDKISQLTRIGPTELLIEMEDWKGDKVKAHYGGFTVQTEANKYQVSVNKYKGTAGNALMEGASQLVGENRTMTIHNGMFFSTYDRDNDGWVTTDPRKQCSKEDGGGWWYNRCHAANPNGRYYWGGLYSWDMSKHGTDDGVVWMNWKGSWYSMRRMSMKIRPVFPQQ
UniProt Q15722, sequence (whole entry, looked up): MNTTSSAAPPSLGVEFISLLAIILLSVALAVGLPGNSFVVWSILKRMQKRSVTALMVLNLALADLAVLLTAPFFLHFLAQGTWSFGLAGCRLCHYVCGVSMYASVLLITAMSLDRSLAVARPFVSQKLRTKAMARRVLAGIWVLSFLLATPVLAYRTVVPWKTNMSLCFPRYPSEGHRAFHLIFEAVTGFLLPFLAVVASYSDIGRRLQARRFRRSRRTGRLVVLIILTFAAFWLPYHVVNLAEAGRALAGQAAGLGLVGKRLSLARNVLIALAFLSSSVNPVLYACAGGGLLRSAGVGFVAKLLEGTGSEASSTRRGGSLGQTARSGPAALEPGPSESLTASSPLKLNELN
UniProt P06399, sequence (whole entry, looked up): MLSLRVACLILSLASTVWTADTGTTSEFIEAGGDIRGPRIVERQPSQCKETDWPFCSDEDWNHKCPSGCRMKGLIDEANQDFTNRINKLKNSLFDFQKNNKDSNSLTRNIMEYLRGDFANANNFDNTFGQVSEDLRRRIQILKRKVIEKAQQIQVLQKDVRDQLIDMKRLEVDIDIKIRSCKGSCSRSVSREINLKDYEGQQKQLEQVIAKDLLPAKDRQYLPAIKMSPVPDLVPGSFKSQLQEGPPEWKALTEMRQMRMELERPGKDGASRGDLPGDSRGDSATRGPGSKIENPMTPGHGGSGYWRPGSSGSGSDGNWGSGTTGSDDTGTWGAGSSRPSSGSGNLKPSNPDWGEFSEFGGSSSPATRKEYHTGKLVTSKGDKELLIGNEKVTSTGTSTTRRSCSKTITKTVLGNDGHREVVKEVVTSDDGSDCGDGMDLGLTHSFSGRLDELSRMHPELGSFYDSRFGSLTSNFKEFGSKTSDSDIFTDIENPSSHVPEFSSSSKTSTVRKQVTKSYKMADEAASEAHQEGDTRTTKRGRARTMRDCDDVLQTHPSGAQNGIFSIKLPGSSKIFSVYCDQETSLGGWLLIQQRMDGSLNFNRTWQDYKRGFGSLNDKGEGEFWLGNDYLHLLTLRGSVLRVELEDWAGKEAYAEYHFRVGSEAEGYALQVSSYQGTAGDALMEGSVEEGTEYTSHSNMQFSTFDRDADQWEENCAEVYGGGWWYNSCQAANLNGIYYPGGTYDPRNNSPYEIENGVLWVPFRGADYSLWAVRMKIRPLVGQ
UniProt P00942, sequence (whole entry, unmodified, looked up): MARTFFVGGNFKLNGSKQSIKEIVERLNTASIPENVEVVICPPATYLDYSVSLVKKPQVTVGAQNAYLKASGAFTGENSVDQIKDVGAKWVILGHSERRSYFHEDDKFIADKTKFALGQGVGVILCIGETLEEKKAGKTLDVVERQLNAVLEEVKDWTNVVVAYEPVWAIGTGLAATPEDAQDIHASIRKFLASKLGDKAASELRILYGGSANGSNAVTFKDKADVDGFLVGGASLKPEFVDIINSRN

The Ki ratio of O=C(O)COP(=O)(O)O is reported as 3.7 (TPI1 (Saccharomyces cerevisiae, UniProt P00942, S211G); enzyme activity, competitive inhibitor, GPDH/NADH-coupled; pH 9.3, 25 °C, ionic strength 0.1 NaCl, together with: glyceraldehyde 3-phosphate substrate; reference: mutant over wild type).
Under activity, O=C1c2ccccc2C(=O)C1c1ccccc1 is recorded as “inactive” (Nuclear receptor subfamily 1 group I member 3; concentration not given).
Cl.Cn1c(=O)n(CCCCN2CCC3(CC2)OCc2ccccc23)c2ccccc21 has a selectivity ratio of about 10 fold (Slc6a4 (Rattus norvegicus, UniProt P31652); [3H]paroxetine binding; rat midbrain membranes; reference: DAT Ki over SERT Ki).
CC[C@H](C)[C@H](NC(=O)[C@H](Cc1c[nH]cn1)NC(=O)[C@@H]1CSSC[C@H](NC(=O)[C@H](Cc2c[nH]cn2)NC(=O)[C@H](Cc2ccccc2)NC(=O)CN2CCCN3CCN(CC(=O)O)CCCN(CC2)Cc2cccc(n2)C3)C(=O)N2C[C@H](O)C[C@H]2C(=O)N[C@@H](Cc2ccc(O)c(Cl)c2)C(=O)N[C@@H](CC(=O)O)C(=O)N[C@@H](CC(C)C)C(=O)N1)C(=O)N[C@@H](CC(C)C)C(=O)NCc1ccc(CNC(=O)CN2CCCN3CCN(CC(=O)O)CCCN(CC2)Cc2cccc(n2)C3)cc1 has a clot-to-organ ratio of 1 (Fgg/Fga/Fgb, fibrin form (Rattus norvegicus, UniProt P02680+P06399+P14480); ex vivo biodistribution; Wistar rat, arterial thrombus model; 2 h).
For CNC(=O)Oc1cccc2c1OC(C)(C)O2, the remaining activity was 98.4% (uncharacterized protein; enzyme activity, inhibitor; Sf9 cell homogenate; 0.04651 µM, 0.1667 h, together with: α-naphthyl acetate substrate; reference: no inhibitor).
O=C(O)c1ccccc1: binding “no binding” (Germin-like protein subfamily 3 member 1 (GLP1, Arabidopsis thaliana, UniProt P94040); microscale thermophoresis; Arabidopsis protoplast extract; concentration not given).
For COc1cc(N)c(Cl)cc1C(=O)NC1CN2CCC1CC2 (stereo not drawn), “log2 fold change” read 0.254 (G-protein coupled receptor 151 (GPR151, Homo sapiens, UniProt Q8TDV0); β-arrestin recruitment, TANGO luminescence, refers to: GPR151; concentration not given; reference: basal luminescence).
CNC(=O)Oc1cccc2c1OC(C)(C)O2 gave a fold change of 13.1 (FABP4 (Homo sapiens, UniProt P15090); binding, affinity selection mass spectrometry; 100 nM, pooled screen; reference: other proteins).
O=C(Nc1cccnn1)N1CCC(=Cc2cccc(Oc3ccc(C(F)(F)F)cn3)c2)CC1: “inhibition of binding” 35% (LTB4R (Homo sapiens, UniProt Q15722); radioligand binding; 50 µM, together with: [3H]LTB4).
The remaining binding of COc1ncccc1-c1cnn2ccc(N3CCN(C(=O)OC(C)C)CC3)nc12 is reported as 83% (Ribosomal protein S6 kinase alpha-3, N-terminal kinase domain (RPS6KA3, Homo sapiens, UniProt P51812); KINOMEscan binding; 1 µM; reference: untreated control).
CC1(C)[C@H](C(=O)O[C@H](C#N)c2cccc(Oc3ccccc3)c2)[C@@H]1C=C(Br)Br gave a remaining activity of 98.7% (uncharacterized protein; enzyme activity, inhibitor; Sf9 cell homogenate; 45.45 µM, 0.1667 h, together with: α-naphthyl acetate substrate; reference: no inhibitor).
With CN1CCN(c2cc(-c3ccncc3)c(-c3ccc4ccccc4c3)nn2)CC1 the activation was 25.7% (GLP2R (Homo sapiens, UniProt O95838); 12.5 µM).
Under “entropic term −TΔS”, CC[C@H](C)[C@H](NC(=O)CNC(=O)[C@@H](N)CCCCN)C(=O)N[C@@H](CC(C)C)C(=O)N[C@@H](CCCCN)C(=O)N[C@@H](CC(N)=O)C(=O)N[C@@H](CCCNC(=N)N)C(=O)N[C@@H](C)C(=O)N[C@@H](CCCNC(=N)N)C(=O)N[C@@H](CCCNC(=N)N)C(=O)N[C@@H](CCC(=O)O)C(=O)N[C@@H](CCCNC(=N)N)C(=O)N1CCC[C@H]1C(=O)NCC(=O)N[C@@H](CCCCN)C(=O)N[C@@H](CCCNC(=N)N)C(=O)N[C@@H](CCCCN)C(=O)N[C@@H](CC(N)=O)C(=O)N[C@H](C(=O)N[C@@H](Cc1c[nH]cn1)C(=O)N[C@@H](Cc1c[nH]c2ccccc12)C(=O)N1CCC[C@H]1C(=O)N[C@@H](CCC(=O)O)C(=O)N[C@@H](CCC(=O)O)C(=O)NCC(=O)N[C@@H](CCCCN)C(=O)N[C@@H](CC(C)C)C(=O)N[C@@H](CCCNC(=N)N)C(=O)N[C@@H](CCC(=O)O)C(=O)N[C@@H](Cc1ccc(O)cc1)C(=O)N[C@@H](Cc1ccccc1)C(=O)N[C@@H](Cc1ccc(O)cc1)C(=O)N[C@@H](Cc1ccccc1)C(=O)N[C@@H](CCC(=O)O)C(=O)N[C@@H](CC(C)C)C(=O)N[C@@H](CC(=O)O)C(=O)N[C@@H](CCC(=O)O)C(=O)N[C@@H](C)C(=O)N[C@@H](CCC(=O)O)C(=O)N[C@@H](CCCNC(=N)N)C(=O)N[C@H](C(=O)N[C@@H](CC(N)=O)C(=O)N[C@H](C(=O)O)C(C)C)C(C)C)C(C)C is recorded as -23.5 ± 0.2 kcal/mol (PPP1CA (Homo sapiens, UniProt P62136); binding, isothermal titration calorimetry; 25 °C, PP1α residues 7-330).
With O=C(Cc1cccs1)N[C@@H]1C(=O)N2C(C(=O)O)=C(/C=C/c3ccc([N+](=O)[O-])cc3[N+](=O)[O-])CS[C@H]12 the Km was 0.9 ± 0.1 µM (blaNDM-1 (Klebsiella pneumoniae, UniProt C7C422, C208D); hydrolysis, substrate).
With CCN(CC)CCCC[C@H](NC(=O)[C@H](CC(C)C)NC(=O)[C@H](C)NC(=O)[C@H](Cc1ccccc1)NC(=O)c1ccc(C(C)(C)C)cc1)C(=O)N[C@@H](CO)C(=O)OC the specific binding was 111% (Htr1b (Rattus norvegicus, UniProt P28564); radioligand binding; 10 µM; reference: control).
[2H]c1c([2H])c([C@]2([2H])CCCN2C(=O)C(C)(C)Oc2ccc3cn[nH]c3c2)c([2H])c([2H])c1C([2H])([2H])[2H] gave a remaining binding of 88% (MAP4K3 (Homo sapiens, UniProt Q8IVH8); KINOMEscan; 1 µM; reference: DMSO control).
With CC(C)[C@@H]1NC(=O)[C@H](C)OC(=O)[C@@H](C(C)C)NC(=O)[C@@H](C(C)C)OC(=O)[C@H](C(C)C)NC(=O)[C@H](C)OC(=O)[C@@H](C(C)C)NC(=O)[C@@H](C(C)C)OC(=O)[C@H](C(C)C)NC(=O)[C@H](C)OC(=O)[C@@H](C(C)C)NC(=O)[C@@H](C(C)C)OC1=O the protein level was 18.6 ± 3.4% (Metalloendopeptidase OMA1, mitochondrial (OMA1, Homo sapiens, UniProt Q96E52); Western blot, refers to: L-OPA1; HEK293T, control siRNA; concentration not given).
For C[C@H]1CCC/C=C/[C@@H]2C[C@H](O)C[C@H]2[C@H](O)/C=C/C(=O)O1, the FLuc/RLuc ratio was 0.976 (Protein transport protein Sec61 subunit alpha isoform 1 (Homo sapiens, UniProt P61619); Sec61-dependent translocation, inhibitor, refers to: CD4 signal peptide-FLuc reporter; HEK293; concentration not given; reference: mock).
C[C@H]1CN(c2n[nH]c3nc(N[C@H]4CC[C@H](NS(=O)(=O)CCC(F)(F)F)CC4)ncc23)CCO1 gave a remaining binding of 1.21 (Splicing factor 3B subunit 3 (Homo sapiens, UniProt Q15393); Kinobeads competition, refers to: SF3B3; 20 µM, unit not given; reference: vehicle).
For Nc1ncnc2c1ncn2[C@@H]1O[C@H](COP(=O)(O)OP(=O)(O)NP(=O)(O)O)[C@@H](O)[C@H]1O, the ΔS was 4.01 cal/mol/K (Cell cycle histidine kinase CckA, G318A; cytoplasmic region (Caulobacter vibrioides, UniProt Q9X688, G318A); ITC; without c-di-GMP).
With COc1ccc(CC2NCCc3cc(OC)c(OC)cc32)cc1OC (stereo not drawn) the remaining activity was 20% (DCLRE1A (Homo sapiens, UniProt Q6PJP8); exonuclease activity, inhibitor, fluorescence HTS; 10 µM, 80 min, together with: 8 nM 5P-FQ substrate).
The apparent Vmax of O=P(O)(O)OC[C@H]1C[C@](O)(CO)[C@@H](O)[C@H](O)[C@@H]1O is reported as 2.3 ± 0.3 µM/min (valA (Streptomyces hygroscopicus, UniProt H2K887); phosphate release; 100 µM).
For CO/N=C1\C[C@]2(C[C@@H]3C[C@@H](C/C=C(\C)C[C@@H](C)/C=C/C=C4\CO[C@@H]5[C@H](O)C(C)=C[C@@H](C(=O)O3)[C@]45O)O2)O[C@H](/C(C)=C/C(C)C)[C@H]1C, the efficacy was 8.79 ± 1.35% (Nuclear receptor subfamily 1 group I member 3; coactivator recruitment; concentration not given, together with: 0.1 µM CITCO).
COc1cc(Nc2ncc(F)c(Nc3ccc4c(n3)NC(=O)C(C)(C)O4)n2)cc(OC)c1OC has an inhibition of 100% (AURKB; KINOMEscan; 10 µM).
COc1ccc(N2C(=O)N(c3c(C)cccc3Cl)Cc3cnc(Nc4ccc(C5CCN(C)CC5)cc4OC)nc32)nc1 has an inhibition of 9% (AURKB; kinase activity, inhibitor; 0.5 µM, kinase AURORA-B).
For O=C(Nc1cnccc1Cl)N1CCN(Cc2ccc3c(c2)OC(F)(F)O3)CC1, the inhibition was -12% (CHRM3 (Homo sapiens, UniProt P20309); binding; 50 µM, together with: [3H]N-methylscopolamine).
O=C(c1ccc(Cl)cc1)N1CCN2C(=O)N(OC(=O)N3CCOc4ccccc43)C(=O)C2C1 (stereo not drawn): “median protein ratio” 0.98 (Acyl-protein thioesterase 1 (Homo sapiens, UniProt O75608); MS-based ABPP; SW-620 conditioned medium; 10 µM, 1 h, 37 °C; reference: compound over DMSO, lower = more inhibition).
N#C[C@@]12C[C@@H]1[C@@H](n1cnc3c(NC4CCCC4)nc(I)nc31)[C@H](O)[C@@H]2O gave an affinity reduction of about 10 fold (5-hydroxytryptamine receptor 2B (Rattus norvegicus, UniProt P30994); antagonist, Gq dissociation BRET; concentration not given; reference: human over rat receptor).
With CC(C)C[C@H](NC(=O)[C@H](Cc1ccccc1)NC(=O)[C@@H]1CCCN1C(=O)[C@H](CCCNC(=N)N)NC(=O)[C@H](CCC(=O)O)NC(=O)[C@@H]1CCCN1C(=O)[C@H](CO)NC(=O)[C@@H](N)CCC(=O)O)C(=O)O the kon was 1170 M⁻¹ s⁻¹ (Epithelial sodium channel subunit gamma (Homo sapiens, UniProt P51170); binding, bio-layer interferometry).
N=C(N)NCCC[C@H]1NC(=O)[C@H](Cc2ccc(O)cc2)NC(=O)[C@H](CCCCN)NC(=O)[C@H](Cc2ccccc2)NC1=O has a Ke of 814 nM (mu opioid receptor guinea pig; antagonist; guinea pig ileum; together with: TAPP).
With COc1ccc(-c2ccc(CNC3(C(=O)NO)CCS(=O)(=O)CC3)cc2F)cc1 the residence time was about 30 min (UDP-3-O-acyl-N-acetylglucosamine deacetylase (Pseudomonas aeruginosa, UniProt P47205); fluorescence; 37 °C).
CC(C)(C)c1ccc(OP(=O)(Oc2ccc(C(C)(C)C)cc2)Oc2ccc(C(C)(C)C)cc2)cc1: “enzyme activity inhibition” “no inhibition” (Acylamino-acid-releasing enzyme (Apeh, Mus musculus, UniProt Q8R146); mouse; dose not given).
With CN(C(=O)n1cnc(-c2ccc[n+]([O-])c2)c1)C1CCCCC1 the inhibition was 9% (ryanodine receptor RyR3, rat; binding; 50 µM, together with: [3H]ryanodine).
c1cncc([C@@H]2CCCN2)c1 has a koff of 618 s⁻¹ (Chrnd/Chrna1/Chrne (Mus musculus, UniProt P02716+P04756+P20782, G173K/S470W); single-channel kinetics; K chain side site).
CCCCCCCCCCCCCC[N+](C)(C)C: “time to steady-state effect” at most 1 min (Sodium channel protein type 4 alpha, BTX-activated (Oryctolagus cuniculus, UniProt G1SLL9); concentration not given).
C[C@@H](O)[C@H](NC(=O)c1ccc(C#Cc2ccccc2)cc1)C(=O)NO — result for “-TΔS of binding”: -5.1 kcal/mol (UDP-3-O-acyl-N-acetylglucosamine deacetylase (Pseudomonas aeruginosa, UniProt P47205, C40S); ITC; concentration not given, 298 K).

A few entries again:
N#C[C@@]12C[C@@H]1[C@@H](n1cnc3c(NC4CCCC4)nc(I)nc31)[C@H](O)[C@@H]2O gave an affinity reduction of about 10 fold (5-hydroxytryptamine receptor 2B (Rattus norvegicus, UniProt P30994); antagonist, Gq dissociation BRET; concentration not given; reference: human over rat receptor).
With COc1ccc(-c2ccc(CNC3(C(=O)NO)CCS(=O)(=O)CC3)cc2F)cc1 the residence time was about 30 min (UDP-3-O-acyl-N-acetylglucosamine deacetylase (Pseudomonas aeruginosa, UniProt P47205); fluorescence; 37 °C).
For COc1cc(N)c(Cl)cc1C(=O)NC1CN2CCC1CC2 (stereo not drawn), “log2 fold change” read 0.254 (G-protein coupled receptor 151 (GPR151, Homo sapiens, UniProt Q8TDV0); β-arrestin recruitment, TANGO luminescence, refers to: GPR151; concentration not given; reference: basal luminescence).
The remaining binding of COc1ncccc1-c1cnn2ccc(N3CCN(C(=O)OC(C)C)CC3)nc12 is reported as 83% (Ribosomal protein S6 kinase alpha-3, N-terminal kinase domain (RPS6KA3, Homo sapiens, UniProt P51812); KINOMEscan binding; 1 µM; reference: untreated control).
With COc1ccc(CC2NCCc3cc(OC)c(OC)cc32)cc1OC (stereo not drawn) the remaining activity was 20% (DCLRE1A (Homo sapiens, UniProt Q6PJP8); exonuclease activity, inhibitor, fluorescence HTS; 10 µM, 80 min, together with: 8 nM 5P-FQ substrate).
With CN1CCN(c2cc(-c3ccncc3)c(-c3ccc4ccccc4c3)nn2)CC1 the activation was 25.7% (GLP2R (Homo sapiens, UniProt O95838); 12.5 µM).
